Published values from different studies.
Parts stem from different laboratories: compare values within a part only. “And” joins repeats or separate records; there may be more than shown.
UniProt Q03141, sequence (whole entry, looked up): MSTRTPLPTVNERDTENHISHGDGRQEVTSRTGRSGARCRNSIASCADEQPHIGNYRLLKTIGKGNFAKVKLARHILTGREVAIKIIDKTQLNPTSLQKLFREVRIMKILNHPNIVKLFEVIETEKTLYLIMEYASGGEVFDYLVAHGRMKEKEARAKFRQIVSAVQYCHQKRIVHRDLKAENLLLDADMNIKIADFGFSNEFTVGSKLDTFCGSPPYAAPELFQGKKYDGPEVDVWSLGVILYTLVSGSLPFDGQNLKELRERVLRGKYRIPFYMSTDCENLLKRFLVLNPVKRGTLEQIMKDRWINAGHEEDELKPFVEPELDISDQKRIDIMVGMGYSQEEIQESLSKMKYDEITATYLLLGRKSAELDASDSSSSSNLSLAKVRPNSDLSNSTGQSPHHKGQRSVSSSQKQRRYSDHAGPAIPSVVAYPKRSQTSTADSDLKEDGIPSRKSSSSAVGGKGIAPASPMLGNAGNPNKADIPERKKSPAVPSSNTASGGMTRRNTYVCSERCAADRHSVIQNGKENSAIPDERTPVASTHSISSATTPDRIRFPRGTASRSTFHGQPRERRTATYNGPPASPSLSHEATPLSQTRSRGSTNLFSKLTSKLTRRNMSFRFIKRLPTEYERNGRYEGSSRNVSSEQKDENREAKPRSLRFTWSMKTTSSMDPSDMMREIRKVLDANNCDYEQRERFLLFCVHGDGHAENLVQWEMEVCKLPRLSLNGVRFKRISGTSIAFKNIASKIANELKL
UniProt Q05512, sequence (whole entry, looked up): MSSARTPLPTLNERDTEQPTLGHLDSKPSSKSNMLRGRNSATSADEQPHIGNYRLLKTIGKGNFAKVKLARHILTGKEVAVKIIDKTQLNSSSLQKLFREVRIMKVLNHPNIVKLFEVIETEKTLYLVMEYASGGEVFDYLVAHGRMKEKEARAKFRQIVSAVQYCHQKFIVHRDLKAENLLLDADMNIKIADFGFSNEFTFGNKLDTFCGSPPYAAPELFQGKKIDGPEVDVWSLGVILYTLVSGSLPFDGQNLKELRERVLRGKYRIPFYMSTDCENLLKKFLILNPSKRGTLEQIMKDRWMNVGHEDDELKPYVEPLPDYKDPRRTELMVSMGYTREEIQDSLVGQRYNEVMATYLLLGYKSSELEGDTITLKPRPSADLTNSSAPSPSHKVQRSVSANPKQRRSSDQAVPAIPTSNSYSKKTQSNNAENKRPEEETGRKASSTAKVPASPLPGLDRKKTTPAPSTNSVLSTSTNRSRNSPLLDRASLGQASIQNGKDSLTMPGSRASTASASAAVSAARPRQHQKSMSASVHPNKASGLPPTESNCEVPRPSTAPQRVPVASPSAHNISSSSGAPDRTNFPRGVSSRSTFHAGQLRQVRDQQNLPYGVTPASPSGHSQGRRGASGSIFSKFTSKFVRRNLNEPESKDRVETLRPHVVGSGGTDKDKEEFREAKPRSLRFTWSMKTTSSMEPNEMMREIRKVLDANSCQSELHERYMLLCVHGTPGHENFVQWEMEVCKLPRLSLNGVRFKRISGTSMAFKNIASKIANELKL

Block 1
Cell line: mouse MPNST tumor cells
Technique: high-content nuclear imaging
Item: cell number
Tested at: 10 µM
Time: 12 h
Setting: mean of 2 replicates
Relative to: plate mean
Reading: higher = more cells
`CCN(CC)CCNC(=O)c1cc(Br)c(N)cc1OC` gave a nuclei count of 0.277 z-score.
With `CCCOc1ccn2c(C(C)=O)cc(-c3ccccc3S(C)(=O)=O)c2c1` the nuclei count was -0.244 z-score.
The nuclei count of `COc1ccc(C(=O)NCc2ccc(OCCN(C)C)cc2)cc1OC` is reported as 0.721 z-score.
The nuclei count of `Cc1c(F)c(N2CCNC(C)C2)cc2c1c(=O)c(C(=O)O)cn2C1CC1` (stereo not drawn) is reported as 1.43 z-score.
`CCCCCCCCCCC[C@@H](C[C@@H]1OC(=O)[C@H]1CCCCCC)OC(=O)[C@H](CC(C)C)NC=O` gave a nuclei count of 1.81 z-score.
The nuclei count of `N#Cc1ccc2[nH]cc(CCCCN3CCN(c4ccc5oc(C(N)=O)cc5c4)CC3)c2c1` is reported as -2.59 z-score.
`CCCc1cc(=O)[nH]c(=S)[nH]1` gave a nuclei count of 0.223 z-score and 1.02 z-score.
With `Cc1cnc(NC(=O)c2cc(S(=O)(=O)N(C)C)ccc2N2CCCC2)s1` the nuclei count was -3.08 z-score.

Block 2
Target: Calcium/calmodulin-dependent protein kinase type II subunit alpha (CAMK2A, Homo sapiens, UniProt Q9UQM7)
UniProt Q9UQM7, sequence (whole entry, looked up): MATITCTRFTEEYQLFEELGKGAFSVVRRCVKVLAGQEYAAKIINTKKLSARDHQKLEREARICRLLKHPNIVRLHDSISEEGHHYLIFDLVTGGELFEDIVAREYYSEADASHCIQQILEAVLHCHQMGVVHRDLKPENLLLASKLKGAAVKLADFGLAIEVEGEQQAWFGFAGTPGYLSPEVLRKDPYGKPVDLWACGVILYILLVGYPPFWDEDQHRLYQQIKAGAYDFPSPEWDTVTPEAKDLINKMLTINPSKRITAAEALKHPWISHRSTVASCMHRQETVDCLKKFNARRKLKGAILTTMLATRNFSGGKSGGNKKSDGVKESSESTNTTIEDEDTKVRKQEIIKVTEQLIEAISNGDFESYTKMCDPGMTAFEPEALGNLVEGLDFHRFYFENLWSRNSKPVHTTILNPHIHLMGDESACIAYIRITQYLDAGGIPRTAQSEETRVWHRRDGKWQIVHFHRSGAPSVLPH
Effect on: enzyme activity
Action: inhibitor
Tested at: 10 µM
`Nc1ccc(O)c(C(=O)O)c1` has an inhibition of 21%.
For `COc1ccc(-c2cc(=O)c3c(O)cc(O)cc3o2)cc1-c1c(O)cc(O)c2c(=O)cc(-c3ccc(O)cc3)oc12`, the inhibition was -20%.
`CC(C)=CC1CC(O)(C2CCC3(C)C2CCC2C4(C=O)CCC(OC5OCC(O)C(OC6OCC(O)C(O)C6O)C5OC5OC(C)C(O)C(O)C5O)C(C)(C)C4CCC23C)C(O)O1` (stereo not drawn) has an inhibition of 10%.
`CCCCCCCCCCCCCCC(=O)O` gave an inhibition of 5%.
`CC(C)=CCCC(C)CC=O` (stereo not drawn) has an inhibition of -9%.
The inhibition of `COC(=O)CCCC(=O)O` is reported as -13%.
The inhibition of `O=C(c1ccc(NS(=O)(=O)c2cccc3cccnc23)cc1)N1CCN(CC2CC2)CC1` is reported as 6%.
With `C[C@@H]1CC[C@]2(C(=O)O[C@@H]3O[C@H](CO)[C@@H](O)[C@H](O)[C@H]3O)CC[C@]3(C)C(=CC[C@@H]4[C@@]5(C)CC[C@H](O)[C@](C)(C(=O)O)[C@@H]5CC[C@]43C)[C@@H]2[C@]1(C)O` the inhibition was 0%.
For `COc1c(O)c(=O)n2c3ccccc3c3ccnc1c32`, the inhibition was 9%.

Block 3
Target: Alpha-2A adrenergic receptor (ADRA2A, Homo sapiens, UniProt P08913)
UniProt P08913, sequence (whole entry, looked up): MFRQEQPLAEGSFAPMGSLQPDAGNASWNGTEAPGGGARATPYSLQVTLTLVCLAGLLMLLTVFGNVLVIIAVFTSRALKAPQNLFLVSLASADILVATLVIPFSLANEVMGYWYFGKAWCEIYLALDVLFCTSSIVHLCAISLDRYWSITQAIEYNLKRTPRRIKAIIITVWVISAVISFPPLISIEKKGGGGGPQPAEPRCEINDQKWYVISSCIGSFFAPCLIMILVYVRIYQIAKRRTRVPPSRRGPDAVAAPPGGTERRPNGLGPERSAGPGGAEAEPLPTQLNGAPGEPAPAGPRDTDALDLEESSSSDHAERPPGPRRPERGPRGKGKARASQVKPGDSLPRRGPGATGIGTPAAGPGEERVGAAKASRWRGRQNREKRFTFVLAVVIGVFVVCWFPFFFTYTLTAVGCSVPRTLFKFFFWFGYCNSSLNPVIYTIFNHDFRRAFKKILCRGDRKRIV
Effect on: ligand displacement
Tested at: 10 µM
The inhibition of `O=C(Nc1ccc(Oc2ccc(F)cc2)cc1)N1CCc2ncccc2[C@H]1c1ccc(F)cc1` is reported as 7.16%.
With `c1ccc(N2CCN(Cc3nc4ccccc4[nH]3)CC2)nc1` the inhibition was 36%.
For `N#CC1(c2ccccn2)CCN(Cc2cc(C(=O)N3CCCC3)c(=O)n3ccccc23)CC1`, the inhibition was -15.7%.
`c1ccc(C2CCN(c3cnc4c(N5CCOCC5)nccn34)CC2)cc1` has an inhibition of 34.6%.
`CN1CCN(c2cnc3c(C4CCN(C(=O)c5ccc(OC(F)(F)F)cc5N)CC4)ncnc3c2)CC1` gave an inhibition of -3.41%.
For `CC(=O)N1CCC(c2ccc(C(=O)NC3=NCCN3)cc2C(F)(F)F)CC1`, the inhibition was 4.92%.
The inhibition of `NC(=O)c1ccc2nc(-c3ccc(C4(N)CCC4)cc3)c(-c3ccccc3)n2n1` is reported as 6.89%.
`CN1CCN(C(=O)C(C)(C)c2ccc(C(=O)Nc3cn4cc(-c5cc(C(C)(C)C)cc(C(C)(C)C)c5)ccc4n3)cc2)CC1` has an inhibition of 83.7%.
For `COc1cc(-c2cn(C3CCc4c(F)cccc4N(CC(F)(F)F)C3=O)nn2)ccc1-n1cnc(C)c1` (stereo not drawn), the inhibition was 35%.
`COc1cccc(NC(=O)c2nc3scc(CN(C)Cc4ccccc4)c3c(=O)[nH]2)c1` has an inhibition of 27.3%.
For `O=C(NCCCC1CCCCC1)c1ccc(CNC(=O)c2cnn(-c3ccccc3)c2C(F)(F)F)cc1`, the inhibition was -2.46%.
With `CN1CCN(c2ccnc(NCCc3ccccc3)n2)CC1` the inhibition was 34.6%.
`O=C1NC(c2ccccn2)Sc2ccccc21` (stereo not drawn) gave an inhibition of 12.7%.
For `CO[C@H]1CC[C@H](CNc2ccc(S(=O)(=O)NC(=O)c3ccc(N4CCN(CC5=C(c6ccc(Cl)cc6)CC(C)(C)CC5)CC4)cc3Oc3cnc4[nH]ccc4c3)cc2[N+](=O)[O-])CC1`, the inhibition was 12.5%.
With `Cc1ccc(-c2cnc([C@@]3(O)CC[C@H](C(=O)O)C(C)(C)C3)s2)cc1Nc1cccc(C(F)(F)F)n1` the inhibition was 34.5%.

Block 4
SMILES: COc1cc(C(=O)N2CCC(N3CCN(C)CC3)CC2)ccc1Nc1ncc2c(n1)N(C)c1ccccc1C(=O)N2C
The inhibition was 17.6% (ACK (mouse); probe labelling, KiNativ, item: Lys1 site peptide; brain tissue lysate (mouse); 1 µM, added: ADP acyl-phosphate probe).
For HCK (human); probe labelling, KiNativ ATP probe; human PBMC lysate; concentration not given, LYS1 labelled site: inhibition read 18.4%.
The inhibition was 3.3% (TNIK (mouse); probe labelling, inhibitor, KiNativ ActivX ADP probe; mouse brain lysate; 0.1 µM, Lys1 site peptide).
MLKL (mouse); probe labelling, KiNativ ADP probe; mouse brain lysate; 1 µM, LYS1 labelled site — inhibition: 7.6%.
It gave -1.9% for inhibition (STLK5 (mouse); probe labelling, inhibitor, KiNativ ActivX ATP probe; mouse brain lysate; 0.1 µM, activation loop peptide).
It gave 21.7% for inhibition (mouse CaMK2δ; probe labelling, KiNativ ATP probe; mouse brain lysate; 1 µM).
Serine/threonine-protein kinase MARK2 (Mark2, Mus musculus, UniProt Q05512); KiNativ profiling; mouse brain lysate; 1 µM, LYS1 site, added: ADP acyl phosphate probe — inhibition: -4.4%.
For MAP/microtubule affinity-regulating kinase 3 (Mark3, Mus musculus, UniProt Q03141); KiNativ profiling; mouse brain lysate; 0.1 µM, LYS1 site, added: ATP acyl phosphate probe: inhibition read 6.1%.
CSK human; KiNativ profiling; human PBMC; concentration not given, activation loop site, added: ATP acyl phosphate probe — inhibition: 10.4%.
For SRPK1/SRPK2 (mouse); probe labelling, inhibitor, KiNativ ActivX ATP probe; mouse brain lysate; 1 µM: inhibition read -32.1%.

Some of these lines once more (block 1):
`CCCCCCCCCCC[C@@H](C[C@@H]1OC(=O)[C@H]1CCCCCC)OC(=O)[C@H](CC(C)C)NC=O` gave a nuclei count of 1.81 z-score.
`CCN(CC)CCNC(=O)c1cc(Br)c(N)cc1OC` gave a nuclei count of 0.277 z-score.
The nuclei count of `Cc1c(F)c(N2CCNC(C)C2)cc2c1c(=O)c(C(=O)O)cn2C1CC1` (stereo not drawn) is reported as 1.43 z-score.
The nuclei count of `COc1ccc(C(=O)NCc2ccc(OCCN(C)C)cc2)cc1OC` is reported as 0.721 z-score.
The nuclei count of `N#Cc1ccc2[nH]cc(CCCCN3CCN(c4ccc5oc(C(N)=O)cc5c4)CC3)c2c1` is reported as -2.59 z-score.
With `Cc1cnc(NC(=O)c2cc(S(=O)(=O)N(C)C)ccc2N2CCCC2)s1` the nuclei count was -3.08 z-score.
With `CCCOc1ccn2c(C(C)=O)cc(-c3ccccc3S(C)(=O)=O)c2c1` the nuclei count was -0.244 z-score.
